# Results from different studies.
# Each numbered part is a random draw from the data of one study; scales do not carry over between parts.

# Block 1
# Target: Phosphate system positive regulatory protein PHO4, full length, GST-tagged (PHO4, Saccharomyces cerevisiae, UniProt P07270, residues 1-312)
# Method: competition protein-binding microarray
# Molecule type: double-stranded DNA, one strand shown
# Medium: in vitro
# Concentration: 2 µM
# Notes: whole 60-bp probe, lowest competitor level
# With: Cbf1 competitor, 0.05 µM
# Reading: higher = stronger binding
# All sequences stand within: … GTCTTGATTCGCTTGACGCTGCTG
# Construct (chain): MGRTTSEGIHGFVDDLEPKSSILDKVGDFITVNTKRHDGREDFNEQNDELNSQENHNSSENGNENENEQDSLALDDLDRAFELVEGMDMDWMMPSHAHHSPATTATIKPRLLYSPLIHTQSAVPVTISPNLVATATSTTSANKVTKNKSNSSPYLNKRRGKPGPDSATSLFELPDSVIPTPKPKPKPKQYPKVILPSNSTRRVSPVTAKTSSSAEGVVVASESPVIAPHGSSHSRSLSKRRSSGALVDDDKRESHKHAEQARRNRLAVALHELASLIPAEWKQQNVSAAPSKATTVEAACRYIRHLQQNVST
Sequence,fluorescence intensity [a.u.]
TTGAATGTAGTTGATCGCGTGTCTGTTGGCCAAATC,7340
AATGCTTTATATAACCATGTGTTTGAATTAGCGATC,10500
CGGGGTTAAGTTTGATAAGTGGGTGGCTTGCAGCAG,4490
CTTGTTATGTGGGAGCCCGTGAGAGGCTTGAAGTGG,6810
CTTCTGTAAATTTGGGTCGTGGGTGGACGCGCCCCG,8680
AAAGCGGTAATTTGGTATGTGGGTGCAGATATCTAT,5200
AGTGTAAGATGTGCTTTCGTGACTCGAGCGAAGGGG,5060
GGCCAAACAGTTGGGCACATGGCAGGAGATGTAGCC,10700
TCTCGGTTGTTCAAGGTCGTGCTAACCATATGGCAT,9420
CGTCCTAGTGATTGTACGGTGGGTGCCATGAGGAAG,7630
AAGCTGAAGGTGCATTGCATGACGCACTATGTGTGG,7710
CCTTGATGGTTCCGTCACGGGAACCAGAGATAATCA,5020
TTTTTCCTCTCTGGCCAGGTGACGTTCTGAATTTTT,3080
AGCAGATGGTAATCGCACGTTGAAAATGCTGAATAT,9790
CTTTCCCGATCTTGCAGTGTGGGTGTAGCACATTTG,5390
GTCTTGTCTCATTGAATCGTGGGTGTCCCCACTTCA,7980
CTTTCCCGATCTTTTCACGTGCAGTTAGCACATTTG,13800
AGGAAGCTGATAAGCAACGTGGTGATGAACAGTATG,14500
CTTTCCCGATCTTGTCACTACACTTTAGCACATTTG,3860
ACTAGTAAGGGTAGTGGTGTGACGCTGACCCGATCG,4860
CGCTATGCCATCAGTGATGTGATGAGCAATGCCGGA,3390
AAATTACTAAGTTGCGCCGTGGGTGACGCCGTATGA,5300
AAATTACTAAGTTGTTCTGTGGGTGACGCCGTATGA,3620
GATGAACTTGTTTAGCACGTGAATATAAGATGAGAG,18100

# Block 2
# Target: Histone acetyltransferase KAT6A, winged helix 1, GST fusion (KAT6A, Homo sapiens, UniProt Q92794, residues 1-85)
# Method: protein binding microarray
# Molecule type: double-stranded DNA, one strand shown
# Medium: in vitro
# Concentration: not given
# Notes: 8-mer, flanks averaged, mean of 2 arrays, mostly near background
# Baseline: not given
# Reading: higher = stronger binding
# Target sequence (chain): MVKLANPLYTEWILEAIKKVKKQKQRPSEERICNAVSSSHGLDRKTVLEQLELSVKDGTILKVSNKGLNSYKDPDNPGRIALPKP
Sequence,E-score
AAGCAAGC,-0.0392
ATCTCAAC,-0.112
TCATACAA,-0.028
GTTTTAAA,-0.147
GGCAGGAC,0.0357
TAGGCTCA,-0.2
AGATATGA,-0.167
CAGTCCCC,-0.0827
ACACACGG,0.327
AACCACAG,-0.197
AGTTGTAA,-0.125
AGGGTTGA,-0.143
TGGATGAA,-0.143
AGGGCCGG,0.15
GTAAGAAC,-0.0938
CGTAACAG,0.0684
AGCTGATA,-0.218
CTTAACCA,-0.214
GACAAGTC,-0.0248
AGTGTGTG,-0.188
CAGGAGTA,-0.198
GCGTTGAA,0.213
CTATACGA,-0.111
GCTCACGA,0.00239
ACATCACA,-0.232

# Block 3
# Target: Interferon regulatory factor 3, full length, phosphomimetic (IRF3, Homo sapiens, UniProt Q14653, residues 1-427, S386D/S396D/S398D/S402D/T404D/S405D)
# Sequence of UniProt Q14653 (whole entry, unmodified, looked up): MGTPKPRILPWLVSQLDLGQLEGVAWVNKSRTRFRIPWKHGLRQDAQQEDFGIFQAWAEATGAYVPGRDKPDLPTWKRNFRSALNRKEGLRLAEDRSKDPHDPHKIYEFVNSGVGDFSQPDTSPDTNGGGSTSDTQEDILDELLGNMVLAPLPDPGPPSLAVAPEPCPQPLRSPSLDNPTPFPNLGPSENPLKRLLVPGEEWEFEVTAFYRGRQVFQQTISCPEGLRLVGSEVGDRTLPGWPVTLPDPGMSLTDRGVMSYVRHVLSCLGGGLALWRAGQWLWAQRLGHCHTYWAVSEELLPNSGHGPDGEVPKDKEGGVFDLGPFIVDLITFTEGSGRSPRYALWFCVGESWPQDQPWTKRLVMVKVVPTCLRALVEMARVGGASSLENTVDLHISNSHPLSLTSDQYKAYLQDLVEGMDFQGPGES
# Method: protein-binding microarray
# Molecule type: double-stranded DNA, one strand shown
# Medium: in vitro
# Concentration: 2540 nM top
# Notes: 60-bp whole probe
# With: salmon DNA 0.4 mg/ml
# Baseline: random background probes
# Reading: higher = stronger binding
# All sequences stand within: GCCTAGCAC … GTCTTGATTCGCTTGACGCTGCTG
Sequence,fitted relative affinity [z-score]
TTAGGTTTCGGGACTGGATTAGTGCTA,4.55
GACGGTTTACTTCTCCTGACGTGCTAG,3.16
GACGGCATCCTTATCCTGACGTGCTAG,0.135
ATTGCTTCCTCTTTTTTGTTGTGCTAG,0.858
TCAAGGCCAGGGTTTCTGTTGTGCTAG,-0.293
GACGAACTGGGATTTCGAGACGTGCTA,-0.147
GACGGACTGGGGACTGAGGACGTGCTA,-0.956
GCCGATCTCAGTTTCGAGACGTGCTAG,3.82
TTAGGACTGGGGAATGGGTTAGTGCTA,-0.936
TTAGATCTCAGTAACGATTAGTGCTAG,0.0176
AAACAAGTCAATGGCCTTTCGTGCTAG,-0.324
GACGGTATCGGGACTGGCGACGTGCTA,1.95
GACGAACTGAGGTTTCGAGACGTGCTA,1.11
CTCTTCTTGCATCTGGGTATGTGCTAG,1.33
TTAGGTTTCGGGATCGGTTAGTGCTAG,4.66
TTAGGACTGCCACTGCTTTAGTGCTAG,-0.958
TTAGGTTTCGGGACTGGGGTAGTGCTA,3.9
TCACTTTTCACTTTACAACTGTGCTAG,3.21
TTAGGTATCCTTATTCTTTAGTGCTAG,4.91
ACCTATAGGTTGTTTCTAATAGTGCTA,0.837
TTAGGTATCCTACTACTTTAGTGCTAG,3.15
GACGATCCCAGACTGGAGACGTGCTAG,0.192
GACGGACTGGGGTATCGGAACGTGCTA,0.428
TCCATTTCTGTTTTTGCTTTGTGCTAG,3.9
TGTAGTGTGTGTCTGATTATGTGCTAG,0.0105

# Block 4
# Target: RNA binding protein fox-1 homolog 2, RRM domain, GST-SBP tag (RBFOX2, Homo sapiens, UniProt O43251-10, residues 100-194)
# Method: RNA Bind-n-Seq
# Molecule type: RNA
# Medium: in vitro
# Concentration: 365 nM
# Notes: natural RNA segment, single round, ends assumed
# Baseline: no-protein control
# Reading: higher = stronger binding
# All sequences stand within: GGGAGUUCUACAGUCCGACGAUC … UGGAAUUCUCGGGUGCCAA
# Target sequence (chain): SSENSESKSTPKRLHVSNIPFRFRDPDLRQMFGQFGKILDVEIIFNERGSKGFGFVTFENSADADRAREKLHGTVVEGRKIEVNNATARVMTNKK
Sequence,RBNS enrichment (R)
CCCGCCCCCCAACAUCCCCCGGGACUAGCACACCCUGCCUUGGCGGGACCAGCGGGCAUUUGUUUUCUUGCUGACUUUGCACCUCCUUUUUUCCCCAAACACUUUGCCAG,0.489
AUUCCUGGAGUCAGUGGAUACAAGUAGUGCAGAAGGUUCACACUGCAAAUAGUGUUCUCAUCUCAAAGCAAACUAUCAUUCCAGAAGGAAAAGUGUGUCAGGGCAAGCAG,0.385
AGUAUUUUUGACAUUUUUCUUUAGAAAAAGGAAGAGCUAAAGGAAUUUUAUAAGUUUUGUUACAUGAAAGGUUGAAAUAUUGAGUGGUUGAAAGUGAACUGCUGUUUGCC,1.39
AGCUGCCAGCCACAGGUUUCUAUUCUGAGUUCUCCAGUCUUGUGAAAGAGGAGAAUUUCCCAGUCAGGUAGCCAGGAGAACAGUGCCACCCUGCGAUUGUGCCACCCUGU,0.332
UCCUUCCCUCCCUUCCUCUCCCACCAUGCGAUGAGCAUCCUUUCAGGCCAGUGUCUGCAGAGCCUCAGUUACCAGGUUUGGUUUCUGAGUGCCUAUCUGUGCUCUUUCCU,0.64
UUGUCUUCUUUCUCUCCUCACCCAACUCCCUUUGCCUCUCCCCAAACCGGGCCGCCAGGAUCCCUCCCCGCGGCGGCGAUGGCCCGAGCCAUGAGAGUGAGGACUUUCCG,0.48
UCCAACCAAAAUGUCAAGUCCGUUCCGAAGGCAUUUUCCACUAGUUUUUGGACUAUGUAAACCACAUUGUACUUUUUUUUACUUUGGCAACAAAUAUUUAUACAUACAAG,0.444
AAAGUAGAAAAGGCAGGUGGUGGGCGGCUGGCAGGGAGUGCGGGUCCCCGCCCCUCUUCAGUCCUGCCCUCCCCUCCUCAGUCCUGCCCACCCCGUGCAGCCCAUGCUGA,0.575
UGUACUGGGUGAUGCACCCAUUGUGAUUGUGGAAGAUAGAAUUCAAUUUGAACUCAGGUUGUUUAUGAGGGGAAAAAAACAGUUGCAUAGAGUAUAGCUCUGUAGUGGAA,1.77
UCCCACCUUGGAGCAUUUAUGUAGACAUUGUAAAUAAAUUUUGUGCAAAAAGGACUGGAAAAAUGAACUGUAUUAUUGCAAUUUUUUUUUGUAAAAGUAGCAGUUUGGUA,0.842
UUGGUCCCUUCCUGAGCCCUGCUCCAGUUGUCCCUAAGUGCCUUCCCUUUUGUCUGGACUGACCUGACCCAUGAUGUUUGGACUACAUGUAGGUGAGCGCCCGCAUUGCA,8.53
GGCUCUGAGUGUCAUCUAUCCAUUGCUGAGGUGGUCUCUAUAGCCUGCUCAAAGUCAAAUACAAACCCAAGAGAAGAAAUGUCUUCUCAAGACUUUGUGUCUAAUGUUUU,0.316

# Excerpt of the above (block 1):
Sequence,fluorescence intensity [a.u.]
CTTCTGTAAATTTGGGTCGTGGGTGGACGCGCCCCG,8680
CTTTCCCGATCTTGTCACTACACTTTAGCACATTTG,3860
CTTTCCCGATCTTGCAGTGTGGGTGTAGCACATTTG,5390
CGCTATGCCATCAGTGATGTGATGAGCAATGCCGGA,3390
CGTCCTAGTGATTGTACGGTGGGTGCCATGAGGAAG,7630
AAATTACTAAGTTGTTCTGTGGGTGACGCCGTATGA,3620
AGTGTAAGATGTGCTTTCGTGACTCGAGCGAAGGGG,5060
CTTGTTATGTGGGAGCCCGTGAGAGGCTTGAAGTGG,6810
GTCTTGTCTCATTGAATCGTGGGTGTCCCCACTTCA,7980
ACTAGTAAGGGTAGTGGTGTGACGCTGACCCGATCG,4860
GATGAACTTGTTTAGCACGTGAATATAAGATGAGAG,18100
TTTTTCCTCTCTGGCCAGGTGACGTTCTGAATTTTT,3080
